Assay results collected from several papers.
Protocols differ between the studies behind these lines.
Organism: Staphylococcus aureus

`CC[C@H](C)[C@H](NC(=O)[C@@H](CCCNC(=N)N)NC(=O)[C@H](CCCNC(=N)N)NC(=O)[C@@H]1CCCN1C(=O)[C@@H]1CCCN1C(=O)[C@H](CCCNC(=N)N)NC(=O)[C@@H]1CCCN1C(=O)[C@H](CCCNC(=N)N)NC(=O)[C@@H]1CCCN1C(=O)[C@H](CC(C)C)NC(=O)[C@H](Cc1cc(I)c(O)c(I)c1)NC(=O)[C@@H]1CCCN1C(=O)[C@@H]1CCCN1C(=O)[C@H](CCCCN)NC(=O)[C@H](CC(=O)O)NC(=O)[C@@H](N)C(C)C)C(=O)N[C@@H](Cc1ccc(O)cc1)C(=O)N[C@@H](CC(N)=O)C(=O)N[C@H](CCCNC(=N)N)C(N)=O` gave an MIC of 128 µg/mL (broth microdilution; DSM 6247; 18 h, 37 °C, 25% MHB2).
`CC[C@H](C)[C@H](NC(=O)[C@@H]1CCCN1C(=O)CNC(=O)[C@H](CC(C)C)NC(=O)[C@H](CCCCN)NC(=O)[C@H](CCCNC(=N)N)NC(=O)[C@H](Cc1c[nH]c2ccccc12)NC(=O)[C@H](C)NC(=O)[C@H](CC(N)=O)NC(=O)[C@H](CCCCN)NC(=O)[C@H](CC(C)C)NC(=O)[C@H](CCCCN)NC(=O)[C@H](CC(N)=O)NC(=O)[C@H](CCCNC(=N)N)NC(=O)[C@H](C)NC(=O)[C@H](CCCNC(=N)N)NC(=O)[C@H](CCCNC(=N)N)NC(=O)[C@H](Cc1ccccc1)NC(=O)[C@H](Cc1c[nH]c2ccccc12)NC(=O)CN)C(=O)N[C@H](C(=O)NCC(=O)N1CCC[C@H]1C(=O)N[C@@H](CC(C)C)C(=O)N[C@@H](CC(C)C)C(=O)N[C@H](C(=O)N[C@@H](CCCNC(=N)N)C(=O)O)[C@@H](C)O)C(C)C` gave an MIC of 8.79 µg/mL (broth microdilution; ATCC 29213, Mueller-Hinton broth; 16 to 20 h, 37 °C).
`CC(C)C[C@@H]1NC(=O)[C@@H](CC(C)C)NC(=O)[C@H](CCN)NC(=O)[C@@H](NC(=O)[C@H](CCN)NC(=O)[C@@H](NC(=O)CN=[N+]=[N-])[C@@H](C)O)CCNC(=O)[C@H]([C@@H](C)O)NC(=O)[C@H](CCN)NC(=O)[C@H](CCN)NC1=O` gave an MIC of over 16 µg/mL (broth microdilution; MRSA USA300, cation-adjusted Mueller-Hinton broth; 20 to 24 h, 37 °C, 0.002% polysorbate 80).
`N=C(N)NCCC[C@@H]1NC(=O)[C@H](CCCNC(=N)N)NC(=O)[C@@H](C(c2ccccc2)c2ccccc2)NC(=O)[C@H](Cc2c[nH]c3ccccc23)NC(=O)[C@@H](C(c2ccccc2)c2ccccc2)NC(=O)[C@@H](CCCNC(=N)N)NC(=O)[C@@H](CCCNC(=N)N)NC1=O` gave an MIC of 4 µg/mL (1193193, MRSA).
`CC[C@H](C)[C@H](NC(=O)[C@@H](CCCNC(=N)N)NC(=O)[C@H](CCCNC(=N)N)NC(=O)[C@H](CO)NC(=O)[C@H](Cc1c[nH]c2ccccc12)NC(=O)[C@H](CCCNC(=N)N)NC(=O)[C@@H]1CCCN1C(=O)[C@H](CCCNC(=N)N)NC(=O)[C@@H]1CCCN1C(=O)[C@H](CC(C)C)NC(=O)[C@H](Cc1ccc(O)cc1)NC(=O)[C@@H]1CCCN1C(=O)[C@@H]1CCCN1C(=O)[C@H](CCCCN)NC(=O)[C@H](CC(=O)O)NC(=O)[C@@H](N)C(C)C)C(=O)N[C@@H](Cc1ccc(O)cc1)C(=O)N[C@@H](CC(N)=O)C(=O)N[C@H](CCCNC(=N)N)C(N)=O` gave an MIC of 64 µg/mL (broth microdilution; DSM 6247; 18 h, 37 °C, 25% MHB2).
`CC[C@@](C)(NC)C(=O)NC(C)(C)C(=O)NC(C)(C)C(=O)NC(C)(C)C(=O)NCC(=O)NC(C)(C)C(=O)N1CCC[C@@H]1C(=O)N[C@@H](Cc1c[nH]c2ccccc12)C(=O)NC(C)(C)C(=O)N1C[C@H](O)C[C@@H]1C(=O)N[C@@H](C)C(=O)NC(C)(C)C(=O)NCCCC(=O)N[C@@H](CC(C)C)C(=O)N[C@](C)(CC)C(=O)NC(C)(C)C(=O)N[C@](C)(CC)C(=O)N[C@H](CO)Cc1ccccc1` has an MIC of 2 µg/mL (broth microdilution; ATCC 29213).
`Oc1c(Br)cc(Br)c2nc3cc(Cl)ccc3nc12` has an MIC of 0.2 µM (broth microdilution; MRSA-2; 16 h, 37 °C).
The MIC of `CC(C)C[C@H](NC(=O)[C@H](CC(C)C)NC(=O)[C@H](CCCCN)NC(=O)[C@H](Cc1ccccc1)NC(=O)[C@@H](NC(=O)[C@H](CCCNC(=N)N)NC(=O)[C@H](CCCCN)NC(=O)[C@H](Cc1c[nH]c2ccccc12)NC(=O)[C@@H](NC(=O)[C@@H](N)CCCNC(=N)N)C(C)C)C(C)C)C(=O)N[C@@H](CCCCN)C(=O)N[C@@H](CCCNC(=N)N)C(=O)N[C@@H](Cc1ccc(O)cc1)C(=O)N[C@@H](Cc1c[nH]c2ccccc12)C(=O)N[C@@H](CCCNC(=N)N)C(N)=O` is reported as 0.96 µg/mL (broth microdilution; MRSA 109).
The MIC of `CCCCCCCCCC(=O)NCCCC[C@H](NC(=O)[C@H](CCCCN)NC(=O)[C@@H]1CSCC(=O)N[C@@H](CCCCN)C(=O)N[C@@H](CC(C)C)C(=O)N[C@@H](CCCCN)C(=O)NCCCC[C@@H]2NC(=O)[C@H](CCCCN)NC(=O)[C@H](CC(C)C)NC(=O)[C@H](CCCCN)NC(=O)CSC[C@H](NC(=O)[C@H](CC(C)C)NC(=O)[C@H](CC(C)C)NC(=O)[C@H](CCCCN)NC2=O)C(=O)N[C@@H](CC(C)C)C(=O)N[C@@H](CC(C)C)C(=O)N[C@@H](CC(C)C)C(=O)N1)C(N)=O` is reported as 64 µg/mL (broth microdilution; MRSA clinical isolate).
For `CC(C)C[C@@H]1NC(=O)[C@H](CCCCN)NC(=O)CNC(=O)[C@H]2CCCN2C(=O)[C@H](CCCCN)NC(=O)[C@H](CC(C)C)NC(=O)[C@H](CCCCN)NC(=O)C2CCC=CCCCC(NC(=O)[C@H](CCCCN)NC1=O)C(=O)N[C@@H](CCCCN)C(=O)NC(C(N)=O)CCCC=CCCC(N)C(=O)N[C@@H](CCCCN)C(=O)N2` (stereo partly drawn), the MIC was 128 µM (broth microdilution; ATCC 29737, Mueller-Hinton broth; 18 h, 37 °C).
`Cc1ccc2[nH]c3c(c2c1)CCCC3NCCc1ccc(Br)cc1` (stereo not drawn) gave an MIC of 4 µg/mL (broth microdilution; SG511 daptomycin-resistant).
`Cc1c(CN(C)C(=O)/C=C/c2cnc3c(c2)CC(N)C(=O)N3)oc2ccccc12` (stereo not drawn) gave an MIC of 0.062 µg/mL (broth microdilution; ATCC 29213; 50% human serum).
With `CN[C@H](CC(C)C)C(=O)N[C@H]1C(=O)N[C@@H](CC(N)=O)C(=O)N[C@H]2C(=O)N[C@H]3C(=O)N[C@H](C(=O)N[C@H](C(=O)NCc4cn(CCCCC(=O)N[C@H](C(=O)N[C@@H](CCN)C(=O)N[C@H]5CCNC(=O)[C@H]([C@@H](C)O)NC(=O)[C@H](CCN)NC(=O)[C@H](CCN)NC(=O)[C@H](CC(C)C)NC(=O)[C@@H](CC(C)C)NC(=O)[C@H](CCN)NC5=O)[C@@H](C)O)nn4)c4cc(O)cc(O)c4-c4cc3ccc4O)[C@H](O)c3ccc(c(Cl)c3)Oc3cc2cc(c3O[C@@H]2O[C@H](CO)[C@@H](O)[C@H](O)[C@H]2O[C@H]2C[C@](C)(N)[C@H](O)[C@H](C)O2)Oc2ccc(cc2Cl)[C@H]1O` the MIC was 0.098 µM (MRSA USA300).
`Oc1c(Br)cc(Br)c2nc3cc(F)c(F)cc3nc12` gave an MIC of 0.15 µM (broth microdilution; MRSA BAA-1707).
The MIC of `CN[C@H](CC(C)C)C(=O)N[C@H]1C(=O)N[C@@H](CC(N)=O)C(=O)N[C@H]2C(=O)N[C@H]3C(=O)N[C@H](C(=O)N[C@H](C(=O)O)c4cc(O)cc(O)c4-c4cc3ccc4O)[C@H](O)c3ccc(c(Cl)c3)Oc3cc2cc(c3O[C@@H]2O[C@H](CO)[C@@H](O)[C@H](O)[C@H]2O[C@H]2C[C@](C)(NCc3ccc(OCc4cn(CCCCC(=O)N[C@H](C(=O)N[C@@H](CCN)C(=O)N[C@H]5CCNC(=O)[C@H]([C@@H](C)O)NC(=O)[C@H](CCN)NC(=O)[C@H](CCN)NC(=O)[C@H](CC(C)C)NC(=O)[C@@H](CC(C)C)NC(=O)[C@H](CCN)NC5=O)[C@@H](C)O)nn4)c(OC)c3)[C@H](O)[C@H](C)O2)Oc2ccc(cc2Cl)[C@H]1O` is reported as 4 µg/mL (broth microdilution; VISA LIM-2, tryptic soy broth; 20 to 24 h, 37 °C, 0.002% polysorbate 80).
`CC(C)C[C@H]1NC(=O)[C@H](Cc2c[nH]c3ccccc23)NC(=O)[C@@H](C)NC(=O)[C@@H]2CSC(N2)[C@H](C(C)C)NC(=O)[C@@H](C(C)C)NC(=O)[C@H](C(C)C)NC1=O` gave an MIC of 12.5 µg/mL (NCTC 8325, Mueller Hinton broth; 21 h, 37 °C).
`C#CCOc1ccc(CN[C@@]2(C)C[C@H](O[C@H]3[C@H](Oc4c5cc6cc4Oc4ccc(cc4Cl)[C@@H](O)[C@@H](NC(=O)[C@@H](CC(C)C)NC)C(=O)N[C@@H](CC(N)=O)C(=O)N[C@H]6C(=O)N[C@H]4C(=O)N[C@H](C(=O)N[C@H](C(=O)NCC(N)=O)c6cc(O)cc(O)c6-c6cc4ccc6O)[C@H](O)c4ccc(c(Cl)c4)O5)O[C@H](CO)[C@@H](O)[C@@H]3O)O[C@@H](C)[C@H]2O)cc1OC` gave an MIC of 0.298 µM (MSSA ATCC 29213).
`O=C(c1ccccc1O)c1[nH]c(Cl)c(Cl)c1-n1c(C(=O)c2ccccc2O)cc(Cl)c1Cl` has an MIC of 2 µM (microbial growth; ATCC29213 MSSA).

Repeated from above:
With `CN[C@H](CC(C)C)C(=O)N[C@H]1C(=O)N[C@@H](CC(N)=O)C(=O)N[C@H]2C(=O)N[C@H]3C(=O)N[C@H](C(=O)N[C@H](C(=O)NCc4cn(CCCCC(=O)N[C@H](C(=O)N[C@@H](CCN)C(=O)N[C@H]5CCNC(=O)[C@H]([C@@H](C)O)NC(=O)[C@H](CCN)NC(=O)[C@H](CCN)NC(=O)[C@H](CC(C)C)NC(=O)[C@@H](CC(C)C)NC(=O)[C@H](CCN)NC5=O)[C@@H](C)O)nn4)c4cc(O)cc(O)c4-c4cc3ccc4O)[C@H](O)c3ccc(c(Cl)c3)Oc3cc2cc(c3O[C@@H]2O[C@H](CO)[C@@H](O)[C@H](O)[C@H]2O[C@H]2C[C@](C)(N)[C@H](O)[C@H](C)O2)Oc2ccc(cc2Cl)[C@H]1O` the MIC was 0.098 µM (MRSA USA300).
